Earlier results that unrelated publications cite.
Protocols differ between the studies behind these lines. ± marks the error that the study gave.

Molecule	target or system	assay	system	conditions	measurement	result
Cc1cc(=O)oc2cc(O)ccc12	human fibroblasts	refers to: chondroitin and dermatan sulfate synthesis	–	up to	no effect concentration	> 1 mM
PACAP-27	NCI-H838	–	–	NG	intracellular cAMP	increased
C[C@]12CC[C@@H]3c4cc(C56CC7CC(CC(C7)C5)C6)c(O)cc4CC[C@H]3[C@@H]1CC[C@@H]2O	HT-22	cell protection	–	with: iodoacetic acid 20 µM	EC50	120 nM
CCCCCCCCCCCCCC(=S)NCCCCC(NC(=O)OCc1ccccc1)C(=O)Nc1ccccc1 (stereo not drawn)	HCT-116 overexpressing SIRT2	anchorage-independent growth	–	–	GI50	27000 ± 8000 nM
C[C@]12CC[C@@H]3c4ccc(O)cc4CC[C@H]3[C@@H]1CCC2=O	HT-22	cell protection	–	with: glutamate 20 mM	EC50	8920 nM
CC(=O)c1cccc(N[C@H]2[C@H](N)[C@@](NC(=O)N(C)C)([C@H](C)O)[C@@](C)(O)[C@@]2(O)COC(=O)c2c(C)cccc2O)c1	DU-145 (prostate cancer)	cell growth	–	NCI screen data	GI50	< 10 nM
C=C(C)[C@@H](CC=C(C)C)C[C@@]12C[C@@H](CC=C(C)C)C(C)(C)[C@]3(C=CC(C)(C)OC3=C(C(=O)c3ccccc3)C1=O)C2=O	neutrophils	superoxide production	–	with: fMLF	IC50	110 nM
O=c1c(O)c(-c2ccc(O)c(O)c2)oc2cc(O)cc(O)c12	MCF7	cell growth	–	–	growth-inhibiting concentration	> 2.5 µM
GVVIA	differentiated PC-12	Aβ42-induced toxicity, inhibitor, MTT	peptide	10-fold excess over Aβ42, 15 h, with: Aβ42 5 µM	viability	83 ± 3%
C[C@]12CC[C@@H]3c4ccc(O)cc4CC[C@H]3[C@@H]1CC[C@@H]2OC(=O)c1ccccc1	HT-22	cell protection	–	with: iodoacetic acid 20 µM	EC50	591 nM
CC1(C)C=Cc2cc3ccc(=O)oc3cc2O1	human neutrophils	elastase release	–	with: fMLF	IC50	24100 nM
Thrombospondin-1	endothelial cells	endothelial cell proliferation, inhibitor	–	–	effective concentration	< 20 nM
O=C(Nc1cccc2cccnc12)c1ccc(N2C(=O)[C@@H]3[C@H](C2=O)[C@@H]2C=C[C@H]3C2)cc1	H9 hESC MYH6-mCherry reporter	cardiomyocyte differentiation	–	–	maximal efficacious concentration	4 µM
CO[C@@H]1[C@@H]2OP(=O)(O)OC[C@H]2O[C@H]1n1c(Sc2ccc(Cl)cc2)nc2c(N)ncnc21	PDE1B	cyclic nucleotide hydrolysis, substrate or inhibitor, isothermal titration calorimetry	–	–	Km or Ki	8570 nM
C[C@]12CC[C@@H]3c4ccc(O)cc4CC[C@H]3[C@@H]1CC1(CCCC1)C2=O	HT-22	cell protection	–	with: iodoacetic acid 20 µM	EC50	6 nM
O=c1c2nc(Br)n([C@@H]3O[C@@H]4COP(=O)(O)O[C@H]4[C@H]3O)c2nc2[nH]c(-c3ccccc3)cn12	PDE1B	cyclic nucleotide hydrolysis, substrate or inhibitor, isothermal titration calorimetry	–	–	Km or Ki	2130 nM
C[C@]12CCC[C@@H]1[C@H]1CCc3cc(O)ccc3[C@@H]1CC2 (single isomer, unassigned)	HT-22	cell protection	–	with: iodoacetic acid 20 µM	EC50	191 nM
Nc1nc2[nH]c(CCCCCCc3ccc(C(=O)N[C@@H](CCC(=O)O)C(=O)O)cc3)cc2c(=O)[nH]1	CHO D4 cells expressing human FR beta	cell growth	–	–	IC50	198 nM

For quick reference, copied from above:
Molecule	target or system	assay	system	conditions	measurement	result
Thrombospondin-1	endothelial cells	endothelial cell proliferation, inhibitor	–	–	effective concentration	< 20 nM
Nc1nc2[nH]c(CCCCCCc3ccc(C(=O)N[C@@H](CCC(=O)O)C(=O)O)cc3)cc2c(=O)[nH]1	CHO D4 cells expressing human FR beta	cell growth	–	–	IC50	198 nM
